Measured values of several laboratories.
Values joined by “and” are separate records of one study, mostly repeats; a detail may differ. Numbers after ± are the reported error. Ends that are not written are not given here. * marks the point of attachment.
HLA class I histocompatibility antigen, B alpha chain: HLA class I histocompatibility antigen, B alpha chain (Homo sapiens, UniProt P01889)
CDK5 with p25: Cyclin-dependent kinase 5, with p25 (CDK5, Homo sapiens, UniProt Q00535)
UniProt Q00535, sequence (whole entry, looked up): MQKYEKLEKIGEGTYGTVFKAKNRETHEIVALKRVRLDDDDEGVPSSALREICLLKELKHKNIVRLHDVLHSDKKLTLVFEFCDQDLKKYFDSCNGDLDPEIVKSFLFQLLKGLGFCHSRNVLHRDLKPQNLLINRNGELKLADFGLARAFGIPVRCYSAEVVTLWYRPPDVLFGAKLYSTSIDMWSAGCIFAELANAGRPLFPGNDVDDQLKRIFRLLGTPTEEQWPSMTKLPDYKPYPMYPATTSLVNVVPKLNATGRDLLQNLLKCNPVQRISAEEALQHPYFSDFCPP
B1: chain MSEILPYGEDKMGRFGADPEGSDLSFSCRLQDTNSFFAGNQAKRPPKLGQIGRAKRVVIEDDRIDDVLKGMGEKPPSGV
UniProt Q64663, sequence (whole entry, unmodified, looked up): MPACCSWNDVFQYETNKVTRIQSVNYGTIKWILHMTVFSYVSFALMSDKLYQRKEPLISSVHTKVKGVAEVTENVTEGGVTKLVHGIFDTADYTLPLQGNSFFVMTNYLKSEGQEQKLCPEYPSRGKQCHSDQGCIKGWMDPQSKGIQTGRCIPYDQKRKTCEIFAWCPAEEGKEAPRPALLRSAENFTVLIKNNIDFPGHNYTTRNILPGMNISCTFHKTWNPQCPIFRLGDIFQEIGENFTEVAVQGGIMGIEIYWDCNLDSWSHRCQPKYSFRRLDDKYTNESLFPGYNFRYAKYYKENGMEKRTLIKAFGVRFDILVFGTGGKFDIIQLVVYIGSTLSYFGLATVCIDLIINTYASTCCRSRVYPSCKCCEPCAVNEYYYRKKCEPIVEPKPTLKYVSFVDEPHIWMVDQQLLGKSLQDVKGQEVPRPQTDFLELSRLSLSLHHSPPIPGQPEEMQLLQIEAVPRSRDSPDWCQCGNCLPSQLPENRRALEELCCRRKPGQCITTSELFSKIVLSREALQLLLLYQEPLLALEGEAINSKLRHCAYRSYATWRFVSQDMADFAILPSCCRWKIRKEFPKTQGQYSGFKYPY
UniProt P04406, sequence (whole entry, looked up): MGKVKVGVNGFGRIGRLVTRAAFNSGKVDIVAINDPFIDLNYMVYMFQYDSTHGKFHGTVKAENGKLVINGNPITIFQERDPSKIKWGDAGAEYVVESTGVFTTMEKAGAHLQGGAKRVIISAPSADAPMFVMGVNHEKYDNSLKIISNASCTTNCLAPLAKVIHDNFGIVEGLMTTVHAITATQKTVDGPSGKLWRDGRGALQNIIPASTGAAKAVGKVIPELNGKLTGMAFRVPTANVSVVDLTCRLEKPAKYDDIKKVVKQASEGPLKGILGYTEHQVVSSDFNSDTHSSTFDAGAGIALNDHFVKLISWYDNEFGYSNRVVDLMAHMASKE
UniProt Q9UQM7, sequence (whole entry, unmodified, looked up): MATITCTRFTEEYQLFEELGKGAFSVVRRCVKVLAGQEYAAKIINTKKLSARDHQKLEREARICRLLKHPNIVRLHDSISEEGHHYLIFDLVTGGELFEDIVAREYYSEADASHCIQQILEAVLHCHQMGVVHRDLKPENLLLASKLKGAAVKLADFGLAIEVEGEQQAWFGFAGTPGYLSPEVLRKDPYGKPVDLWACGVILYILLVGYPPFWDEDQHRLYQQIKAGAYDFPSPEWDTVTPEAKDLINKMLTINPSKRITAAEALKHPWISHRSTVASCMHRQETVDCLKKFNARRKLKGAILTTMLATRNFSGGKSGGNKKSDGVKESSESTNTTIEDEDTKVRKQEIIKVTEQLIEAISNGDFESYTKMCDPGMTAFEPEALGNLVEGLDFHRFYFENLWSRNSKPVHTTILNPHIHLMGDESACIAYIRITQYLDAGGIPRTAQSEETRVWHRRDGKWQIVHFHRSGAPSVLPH
UniProt Q9HBH1, sequence (whole entry, looked up): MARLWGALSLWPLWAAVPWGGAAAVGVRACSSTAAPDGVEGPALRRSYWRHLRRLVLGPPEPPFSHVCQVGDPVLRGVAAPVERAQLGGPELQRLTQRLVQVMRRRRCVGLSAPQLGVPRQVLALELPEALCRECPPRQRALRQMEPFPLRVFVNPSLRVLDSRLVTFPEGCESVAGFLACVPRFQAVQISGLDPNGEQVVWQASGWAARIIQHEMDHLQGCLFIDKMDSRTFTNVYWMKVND
UniProt Q9NS37, sequence (whole entry, looked up): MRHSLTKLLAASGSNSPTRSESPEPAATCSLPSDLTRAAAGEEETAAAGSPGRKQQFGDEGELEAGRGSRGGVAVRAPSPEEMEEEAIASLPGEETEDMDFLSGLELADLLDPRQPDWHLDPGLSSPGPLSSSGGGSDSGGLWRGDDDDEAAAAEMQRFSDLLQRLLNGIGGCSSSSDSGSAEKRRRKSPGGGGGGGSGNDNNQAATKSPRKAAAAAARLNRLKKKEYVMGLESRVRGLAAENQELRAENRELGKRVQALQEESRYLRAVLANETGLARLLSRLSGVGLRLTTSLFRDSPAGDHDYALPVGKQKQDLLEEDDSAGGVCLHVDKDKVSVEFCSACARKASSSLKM
UniProt P14416, sequence (whole entry, looked up): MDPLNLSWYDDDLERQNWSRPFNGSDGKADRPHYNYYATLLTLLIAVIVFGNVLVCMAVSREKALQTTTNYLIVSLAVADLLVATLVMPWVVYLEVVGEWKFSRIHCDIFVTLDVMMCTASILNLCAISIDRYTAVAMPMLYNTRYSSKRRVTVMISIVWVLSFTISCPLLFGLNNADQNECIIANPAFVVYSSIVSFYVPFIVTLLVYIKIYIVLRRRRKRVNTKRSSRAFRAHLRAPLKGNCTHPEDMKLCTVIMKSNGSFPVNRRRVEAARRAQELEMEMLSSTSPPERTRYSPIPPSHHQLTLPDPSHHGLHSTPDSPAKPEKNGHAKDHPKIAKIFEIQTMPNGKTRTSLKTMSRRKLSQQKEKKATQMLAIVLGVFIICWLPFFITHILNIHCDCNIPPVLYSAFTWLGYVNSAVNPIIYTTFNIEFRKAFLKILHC
UniProt P62813, sequence (whole entry, looked up): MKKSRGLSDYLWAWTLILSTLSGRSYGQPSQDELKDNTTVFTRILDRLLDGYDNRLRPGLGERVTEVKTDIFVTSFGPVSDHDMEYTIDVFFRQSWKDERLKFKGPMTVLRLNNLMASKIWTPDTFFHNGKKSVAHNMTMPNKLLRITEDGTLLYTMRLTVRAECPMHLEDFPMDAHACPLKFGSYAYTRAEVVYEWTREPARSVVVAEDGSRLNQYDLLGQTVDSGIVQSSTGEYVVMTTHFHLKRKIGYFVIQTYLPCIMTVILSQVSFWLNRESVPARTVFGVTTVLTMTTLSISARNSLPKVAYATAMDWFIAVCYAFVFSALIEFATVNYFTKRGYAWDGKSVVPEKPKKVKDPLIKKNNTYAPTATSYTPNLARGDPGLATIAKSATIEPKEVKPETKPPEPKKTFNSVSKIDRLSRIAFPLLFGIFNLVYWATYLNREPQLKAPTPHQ
UniProt Q9HCF6, sequence (whole entry, looked up): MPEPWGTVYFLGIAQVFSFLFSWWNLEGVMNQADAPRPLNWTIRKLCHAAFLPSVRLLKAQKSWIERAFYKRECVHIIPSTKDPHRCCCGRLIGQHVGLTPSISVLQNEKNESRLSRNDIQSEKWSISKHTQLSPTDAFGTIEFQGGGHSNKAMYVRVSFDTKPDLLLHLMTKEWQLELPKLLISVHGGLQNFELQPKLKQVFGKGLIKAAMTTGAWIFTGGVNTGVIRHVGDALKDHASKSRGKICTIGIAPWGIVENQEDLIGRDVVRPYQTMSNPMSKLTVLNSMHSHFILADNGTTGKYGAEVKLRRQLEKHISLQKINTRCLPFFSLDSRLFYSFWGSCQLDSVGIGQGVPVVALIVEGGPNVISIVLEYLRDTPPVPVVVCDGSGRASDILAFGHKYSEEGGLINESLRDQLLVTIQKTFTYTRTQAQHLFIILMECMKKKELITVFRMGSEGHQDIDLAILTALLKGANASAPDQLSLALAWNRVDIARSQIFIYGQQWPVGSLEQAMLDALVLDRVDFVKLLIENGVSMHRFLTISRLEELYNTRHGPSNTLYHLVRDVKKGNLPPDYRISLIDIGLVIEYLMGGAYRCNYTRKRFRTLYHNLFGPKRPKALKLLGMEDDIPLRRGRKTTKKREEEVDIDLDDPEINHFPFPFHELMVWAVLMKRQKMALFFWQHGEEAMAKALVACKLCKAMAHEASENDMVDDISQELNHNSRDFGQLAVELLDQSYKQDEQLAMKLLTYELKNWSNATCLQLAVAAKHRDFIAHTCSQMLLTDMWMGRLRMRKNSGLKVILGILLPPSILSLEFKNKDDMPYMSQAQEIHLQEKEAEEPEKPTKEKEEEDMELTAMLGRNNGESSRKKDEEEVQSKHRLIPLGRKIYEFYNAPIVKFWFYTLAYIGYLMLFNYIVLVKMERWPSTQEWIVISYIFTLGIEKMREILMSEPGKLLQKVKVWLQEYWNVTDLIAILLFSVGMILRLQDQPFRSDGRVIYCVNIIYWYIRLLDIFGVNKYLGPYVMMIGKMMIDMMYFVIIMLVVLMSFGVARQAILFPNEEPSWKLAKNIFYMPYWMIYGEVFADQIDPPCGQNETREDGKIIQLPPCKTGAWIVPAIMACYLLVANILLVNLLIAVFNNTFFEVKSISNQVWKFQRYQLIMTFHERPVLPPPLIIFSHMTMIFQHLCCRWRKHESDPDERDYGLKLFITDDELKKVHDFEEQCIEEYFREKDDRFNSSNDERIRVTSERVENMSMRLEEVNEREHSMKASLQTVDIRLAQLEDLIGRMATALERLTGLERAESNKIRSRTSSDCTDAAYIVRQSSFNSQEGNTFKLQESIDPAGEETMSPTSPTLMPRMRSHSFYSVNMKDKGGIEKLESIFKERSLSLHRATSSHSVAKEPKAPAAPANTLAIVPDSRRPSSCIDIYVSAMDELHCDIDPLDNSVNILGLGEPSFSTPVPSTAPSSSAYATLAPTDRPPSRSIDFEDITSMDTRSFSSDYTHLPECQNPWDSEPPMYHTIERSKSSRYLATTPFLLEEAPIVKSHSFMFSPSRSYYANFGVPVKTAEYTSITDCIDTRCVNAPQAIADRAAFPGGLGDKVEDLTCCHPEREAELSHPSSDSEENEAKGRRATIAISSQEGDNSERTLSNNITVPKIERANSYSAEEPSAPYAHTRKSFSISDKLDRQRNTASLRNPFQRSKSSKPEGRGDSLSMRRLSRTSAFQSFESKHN

KQWLVWLFL
binding affinity fold difference (TCR; SPR; peptide; concentration not given, 25 °C; reference: peptide over wild-type peptide): ~20 fold

Boc-RVRR-{AMC} (N-Boc, C-AMC; Boc = CC(C)(C)OC(=O)*; AMC = Cc1cc(=O)oc2cc(N*)ccc12)
Vmax (Furin (FURIN, Homo sapiens, UniProt P09958); cleavage, substrate, HPLC; 15 min, 37 °C): 0.00547 nmol/min/unit

SPSAPPHRWCL
binding (HLA class I histocompatibility antigen, B alpha chain; iTopia initial binding; peptide; 11 µM, 18 h, 21 °C, HLA-B7 allele; reference: allele positive control peptide): 75%

pregnenolone sulfate
current density (TRPM3 (Homo sapiens, UniProt Q9HCF6); whole-cell patch clamp; HEK-293T expressing hTRPM3-YFP; 40 µM, at +80 mV, together with: clotrimazole 10 µM, DTT pretreatment): 5.47 ± 2.2 pA/pF

CIIS
relative spot intensity (Rattus norvegicus protein farnesyltransferase; peptide prenylation, substrate, SPOT peptide library; peptide; together with: C15-Alk; reference: random library): 100%

SVCETGSNTEE
binding (LC8 dynein light chain; isothermal titration calorimetry; peptide; concentration not given, 25 °C, 500 µM and 60 µM): no binding

IPQQHTQVM
binding (HLA class I histocompatibility antigen, B alpha chain; iTopia initial binding; peptide; 11 µM, 18 h, 21 °C, HLA-B7 allele; reference: allele positive control peptide): 60%

RQLRNWTSAEGLLRVHARL
binding (HLA-DR, human; DELFIA; peptide; 10 µM, 48 h, 37 °C; reference: peptide alone): > 2 fold

KQAFWDRCLSVINLMSSKMLQINA
activity change (CDK5 with p25; phosphotransferase activity, radiometric; peptide; concentration not given, 10% DMSO, together with: histone substrate; reference: p5-WT peptide): 38%

For-MAHA (N-formyl; For = O=C*)
Km (Peptide deformylase, mitochondrial (Homo sapiens, UniProt Q9HBH1); substrate, FDH/NAD+-coupled; pH 7.5): 8.14 ± 0.887 mM

KEAFWDRMLSVINLMSSKMLQINA
activity change (CDK5 with p25; phosphotransferase activity, radiometric; peptide; concentration not given, 10% DMSO, together with: histone substrate; reference: p5-WT peptide): 53%

Teniposide related compound A
agonist score (GABA-A receptor; alpha-1/beta-2/gamma-2 (Rattus norvegicus, UniProt P18508+P62813+P63138); QP-DHM primary screen; HEK293 cells; 10 µM; direction not given): 0.499

NASC
enzyme activity (Vmax) (GAPDH (Homo sapiens, UniProt P04406); spectrophotometric; peptide; 10 µM; reference: vehicle): 106% and 92% and 94% and 94.5%

Ro 41-0960
inhibition (Genome polyprotein, NS3 helicase domain (Hepatitis C virus genotype 1b, UniProt Q9WMX2); NS3 helicase DNA binding, fluorescence, Cy5-dT15; 100 µM): 5%

B1
ΔH (CAMK2A (Homo sapiens, UniProt Q9UQM7, D135N); binding, ITC; kinase domain D135N): -6.88 kcal/mol and -7.89 kcal/mol

KEGFWDRCLSVINLMSSKMLQINA
activity change (CDK5 with p25; phosphotransferase activity, radiometric; peptide; concentration not given, 10% DMSO, together with: histone substrate; reference: p5-WT peptide): 54%

human ME2 P78D
activation fold (enzyme activity, activator, NADH absorbance; recombinant enzyme; range over 0 to 5 mM, pH 7.4; reference: wild type): 0.9

milbemycin oxime
fraction bound (CDR1 (Candida albicans, UniProt Q5ANA3); binding, microscale thermophoresis; 313 nM): 60.3%

KEAFWDRALSVINLMSSKMLQINA
activity change (CDK5 with p25; phosphotransferase activity, radiometric; peptide; concentration not given, 10% DMSO, together with: histone substrate; reference: p5-WT peptide): 0%

HDLFSRIDSSVVVVP
binding (HLA-DR, human; DELFIA; peptide; 10 µM, 48 h, 37 °C; reference: peptide alone): 1 fold

KESFWDRCLSVINLMSSKMLQINA
activity change (CDK5 with p25; phosphotransferase activity, radiometric; peptide; concentration not given, 10% DMSO, together with: histone substrate; reference: p5-WT peptide): 35%

11-deoxycorticosterone
rate constant k-2 (CYP11B2 (human); substrate binding, stopped-flow kinetic modelling; 4-state branched induced-fit model, together with: no adrenodoxin): 30.8 min⁻¹

dextrin
ΔTm (uncharacterized protein (Pelagibacter ubique, UniProt Q4FMK2); thermal stabilisation, differential scanning fluorimetry; Candidatus Pelagibacter ubique): 6.32 °C

NLVAQLENEVASLENENETLKKKNLHKKDLIAYLEKEIANLRKKIEE
Tm (CREB/ATF bZIP transcription factor (CREBZF, Homo sapiens, UniProt Q9NS37); heterodimer thermal denaturation, CD; peptide, 1 M GuHCl; 4 µM total peptide, pH 7.4): 43 °C

DMTSEEVVQKMTGLKVPLSHSRSND
optimal inhibitory concentration (Cathepsin K (Rattus norvegicus, UniProt O35186); recombinant enzyme; peptide; concentration not given): 500 nM

KEAFWDRCLSVINLSSSKMLQINA
activity change (CDK5 with p25; phosphotransferase activity, radiometric; peptide; concentration not given, 10% DMSO, together with: histone substrate; reference: p5-WT peptide): 50%

human ME2 D102S
Hill coefficient (enzyme activity, NADH absorbance; without fumarate, together with: L-malate varied): 1.72 ± 0.05

colistin
MIC (Pseudomonas aeruginosa; clinical isolate RKI 359/11): ≤ 1 µg/mL

RHOA (wild-type)
GTP hydrolysis rate constant (RHOA; intrinsic GTPase activity; room temperature, together with: 5 µM GTP): 0.034 ± 0.01 min⁻¹

β-melibiose
dissociation rate constant (Frizzled-8 (Xenopus laevis, UniProt Q91719); binding, biolayer interferometry; 25 °C, together with: immobilized biotinylated carbohydrate): 0.0115 s⁻¹

KEMFWDRCLSVINLMSSKMLQINA
activity change (CDK5 with p25; phosphotransferase activity, radiometric; peptide; concentration not given, 10% DMSO, together with: histone substrate; reference: p5-WT peptide): 39%

BzATP
normalized current (P2X purinoceptor 7 (P2rx7, Rattus norvegicus, UniProt Q64663, I214A/Q143A); ion current, agonist, two-electrode voltage clamp; Xenopus oocytes; 900 µM): 0.99 and 0.97 and 0.9

(+)-butaclamol
Hill coefficient (DRD2 (Homo sapiens, UniProt P14416); radioligand binding, antagonist; reference compound): 1.1

KEAFWDRCLSLINLMSSKMLQINA
activity change (CDK5 with p25; phosphotransferase activity, radiometric; peptide; concentration not given, 10% DMSO, together with: histone substrate; reference: p5-WT peptide): 63%

ESGRRVLVYSCRHGYELQG
binding (HLA-DR, human; DELFIA; peptide; 10 µM, 48 h, 37 °C; reference: peptide alone): > 2 fold

Repeated from above:
Boc-RVRR-{AMC} (N-Boc, C-AMC; Boc = CC(C)(C)OC(=O)*; AMC = Cc1cc(=O)oc2cc(N*)ccc12)
Vmax (Furin (FURIN, Homo sapiens, UniProt P09958); cleavage, substrate, HPLC; 15 min, 37 °C): 0.00547 nmol/min/unit

β-melibiose
dissociation rate constant (Frizzled-8 (Xenopus laevis, UniProt Q91719); binding, biolayer interferometry; 25 °C, together with: immobilized biotinylated carbohydrate): 0.0115 s⁻¹

KEAFWDRALSVINLMSSKMLQINA
activity change (CDK5 with p25; phosphotransferase activity, radiometric; peptide; concentration not given, 10% DMSO, together with: histone substrate; reference: p5-WT peptide): 0%

NASC
enzyme activity (Vmax) (GAPDH (Homo sapiens, UniProt P04406); spectrophotometric; peptide; 10 µM; reference: vehicle): 106% and 92% and 94% and 94.5%
